{"data": "Results of several laboratories", "note": "Protocols differ between the studies behind these lines."}
{"Structure (SMILES)": "N[C@@H]1c2ccccc2OC12CCN(c1cnc3c(N4CCCc5ncccc54)n[nH]c3n1)CC2", "system": "advanced solid tumour patients", "conditions": "oral, 75 mg once daily", "endpoint": "patients with grade ≥3 TEAE", "value": "71.4%"}
{"Structure (SMILES)": "CN1CC[C@@H](c2c(O)cc(O)c3c(=O)cc(-c4ccc(C(F)(F)F)cc4Cl)oc23)[C@@H]1CO", "test": "measured: Constipation", "system": "B-cell malignancies", "conditions": "oral, 200 mg, intermittent dosing", "endpoint": "patients with adverse event", "value": "0%"}
{"Structure (SMILES)": "CC(=O)c1c(C)c2cnc(Nc3ccc(C4CCN(CCS(C)(=O)=O)CC4)cn3)nc2n(C2CCCC2)c1=O", "system": "HR+/HER2- advanced breast cancer patients", "conditions": "oral, dose not given, all grades,, total", "endpoint": "patients with AST increased", "value": "30.9%"}
{"Structure (SMILES)": "COc1nnc2ccc(N3CCC(c4ccc(OCCN5CCN(C)C(=O)[C@H]5C)cc4)CC3)nn12", "test": "measured: fatigue", "system": "patients with solid tumours or lymphoma", "conditions": "oral, dose not given, grade at least 3, treatment-emergent", "endpoint": "patients with adverse event", "value": "5.9%"}
{"Structure (SMILES)": "O=C1Nc2cc3[nH]nc(-c4ccncc4)c3cc2CN1Cc1ccccc1", "test": "CTCAE v4.03", "system": "advanced solid tumour patients", "conditions": "intravenous, 1.8 mg/kg, schedules 1/2", "endpoint": "patients with fatigue", "value": "0%"}
{"Structure (SMILES)": "CCNCCCNC/C=C\\CNCCCNCC", "system": "advanced refractory solid tumour patients", "conditions": "intravenous, dose not given, General disorders", "endpoint": "patients with drug-related TEAEs", "value": "56.5%"}
{"Structure (SMILES)": "C=CCNc1c(O)cc2c(O)c1C[C@@H](C)C[C@H](OC)[C@H](O)[C@@H](C)/C=C(\\C)[C@H](OC(N)=O)[C@@H](OC)/C=C\\C=C(/C)C(=O)N2", "system": "unresectable or metastatic sarcoma", "conditions": "intravenous, 225 mg/m^2, grade 3-4 lab change", "endpoint": "patients with ALP increase", "value": "0%"}
{"Structure (SMILES)": "Nc1nc2cc(-c3ccc4ncc(C(=O)N5CCOCC5)n4c3)ccc2o1", "test": "measured: Cough, any cause, all grades", "system": "patients with advanced solid tumours", "conditions": "dose not given", "endpoint": "patients with adverse events", "value": "22%"}
{"Structure (SMILES)": "C=CC(=O)N1CC[C@H](n2nc(C#Cc3cc(OC)cc(OC)c3)c3c(N)ncnc32)C1", "test": "measured: blood creatinine increased", "system": "hyperphosphataemia patients", "conditions": "oral, once daily, any grade, lanthanum carbonate users", "endpoint": "patients with ADR", "value": "8.3%"}
{"Structure (SMILES)": "COc1cc2c(Oc3ccc4[nH]c(C)cc4c3F)ccnc2cc1OCC1(N)CC1", "system": "paediatric refractory sarcoma patients", "conditions": "8 mg/kg", "endpoint": "patients with grade 3 AST elevation", "value": "0%"}
